Experimental data from different studies.
Every numbered part comes from another study and shows a few of its results, in no order. Substitutions count along the parent as printed.

Set 1
Target: CCNB1, cyclin fold, Cln2 fusion (human)
Technique: yeast growth competition, sequencing
Medium: yeast
Setting: strong parent motif
Relative to: not given
Direction: higher = stronger binding
Parent: INSM1 docking peptide (human); PKAIRKLHFEDEV; partner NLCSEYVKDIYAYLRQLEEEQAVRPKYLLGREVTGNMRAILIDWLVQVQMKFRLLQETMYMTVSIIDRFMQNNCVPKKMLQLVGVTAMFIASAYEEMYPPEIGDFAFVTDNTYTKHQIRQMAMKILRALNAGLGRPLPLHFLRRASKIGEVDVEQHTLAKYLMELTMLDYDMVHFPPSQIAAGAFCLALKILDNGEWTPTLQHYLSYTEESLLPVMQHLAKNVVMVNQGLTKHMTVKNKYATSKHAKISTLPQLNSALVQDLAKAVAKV
| Substitution | normalised enrichment score |
| --- | --- |
| K2N | 3.89 |
| K6P | 0.387 |
| K6E | 1.14 |
| E10C | 1.58 |
| D11H | 1.17 |
| K6S | 0.919 |
| F9Q | 0.181 |
| I4M | 1.13 |
| A3K | 0.858 |
| E12N | 1.2 |

Set 2
Target: Interferon regulatory factor 7, full length, phosphomimetic (IRF7, Homo sapiens, UniProt Q92985, residues 1-503, S471D/S472D/S475D/S476D/S477D/S483D/S484D/S487D)
Technique: protein-binding microarray
Form: double-stranded DNA, one strand shown
Medium: in vitro
Tested at: 2200 nM top
Setting: 60-bp whole probe
With: salmon DNA 0.4 mg/ml
Relative to: random background probes
Direction: higher = stronger binding
All sequences stand within: GCCTAGCAC … GTCTTGATTCGCTTGACGCTGCTG
Residues (chain): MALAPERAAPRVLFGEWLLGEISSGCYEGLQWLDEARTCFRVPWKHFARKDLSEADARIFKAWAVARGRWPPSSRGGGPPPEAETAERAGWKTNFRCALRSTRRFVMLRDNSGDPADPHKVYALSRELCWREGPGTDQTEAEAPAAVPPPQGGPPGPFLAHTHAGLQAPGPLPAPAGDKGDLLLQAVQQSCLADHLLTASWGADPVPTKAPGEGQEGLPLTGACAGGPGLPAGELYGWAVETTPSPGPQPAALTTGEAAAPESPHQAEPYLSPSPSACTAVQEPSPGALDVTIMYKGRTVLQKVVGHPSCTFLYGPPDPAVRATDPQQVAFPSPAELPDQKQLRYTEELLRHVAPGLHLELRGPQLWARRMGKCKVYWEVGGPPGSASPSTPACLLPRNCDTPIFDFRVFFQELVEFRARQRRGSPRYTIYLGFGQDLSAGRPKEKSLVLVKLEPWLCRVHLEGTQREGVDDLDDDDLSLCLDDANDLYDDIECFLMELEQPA
| Sequence | fitted relative affinity |
| --- | --- |
| TTAGGTATCCTTCTCCTGTAGTGCTAG | 1.19 z-score |
| GACGATATCAGTATCGACACGTGCTAG | 0.391 z-score |
| GACGGTTTGCTACTGCTGACGTGCTAG | 0.924 z-score |
| TTTGGTTTCGGTTCCGGTTAGTGCTAG | 12.9 z-score |
| GACGGCTCCGGTTTCGGGACGTGCTAG | 2.52 z-score |
| TCAATTTTTTTTTTCTAACTGTGCTAG | 1.21 z-score |
| TTAGAAATGGGGACTGGATTAGTGCTA | -0.535 z-score |
| TCAGATCTCAGTTTCGATTAGTGCTAG | 5.82 z-score |
| TTGTTTTTCATCATTGCCTAGTGCTAG | 2.38 z-score |

Set 3
Target: PABPC1L2, full length, GST fusion (mouse, UniProt A0ABA7IW68)
Technique: RNAcompete
Form: RNA
Medium: in vitro
Tested at: 20 nM
Setting: 7-mer, probes averaged, single round
Relative to: mean of 7-mers
Direction: higher = stronger binding
Construct (chain): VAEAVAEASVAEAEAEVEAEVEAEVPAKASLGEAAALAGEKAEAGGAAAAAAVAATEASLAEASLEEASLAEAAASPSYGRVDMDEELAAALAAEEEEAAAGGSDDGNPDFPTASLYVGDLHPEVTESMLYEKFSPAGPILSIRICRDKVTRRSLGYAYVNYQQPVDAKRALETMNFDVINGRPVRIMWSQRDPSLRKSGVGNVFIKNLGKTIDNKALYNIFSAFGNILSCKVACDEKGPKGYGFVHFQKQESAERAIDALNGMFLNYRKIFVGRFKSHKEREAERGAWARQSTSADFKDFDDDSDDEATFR
| Sequence | 7-mer Z-score |
| --- | --- |
| AAGGAAU | 0.126 |
| GCUUAGA | -0.144 |
| CCUCCUG | -0.393 |
| AAGUGGC | 0.608 |
| CCCUCUU | -0.336 |
| UCGAGGU | -0.126 |
| AGCAUCA | 0.0152 |
| ACCUCAU | -0.166 |

Further values, each from its own experiment
| Molecule | target | assay | test system | setting | scale | measurement | value |
| --- | --- | --- | --- | --- | --- | --- | --- |
| PhoQ, residues 284 288 289 292 302 303 ASSHFY | PhoP, residues 12 14 15 18 19 QYFSL (Escherichia coli, UniProt P23836) | Sort-seq, refers to: YFP reporter | E. coli | PhoQ-PhoP variant library, with: 10 µM Mg2+ | relative to: high Mg2+ state, higher = stronger signaling | fold induction | 14 |

For quick reference, copied from above (set 1):
| Substitution | normalised enrichment score |
| --- | --- |
| A3K | 0.858 |
| K6E | 1.14 |
| F9Q | 0.181 |
| D11H | 1.17 |
